Results pooled from the literature.
Several values in a cell are separate wells, animals, samples, runs or records. ± gives the spread as reported.

C[C@H](CCC(=O)NCCS(=O)(=O)O)[C@H]1CC[C@H]2[C@@H]3CC[C@@H]4C[C@H](OS(=O)(=O)O)CC[C@]4(C)[C@H]3CC[C@]12C — plasma concentration (healthy human volunteers, plasma; dose not given, 0 h, control phase, probe drugs alone): 122 ± 41 nM
Cn1c(=O)[nH]c2nc[nH]c2c1=O — plasma concentration (human, both sexes, plasma; median): 11700 nM
CC[C@@H]([C@H](C)O)n1ncn(-c2ccc(N3CCN(c4ccc(OC[C@@H]5CO[C@@](Cn6cncn6)(c6ccc(F)cc6F)C5)cc4)CC3)cc2)c1=O — plasma concentration (human patients, induction therapy, plasma; oral, 300 mg/day, day 21, mean): 900 ng/mL
Cc1cc(N(CCOS(C)(=O)=O)CCOS(C)(=O)=O)ccc1C=O — plasma concentration (human, plasma; intravenous, 9 mg/m^2, 5 min): 14.5 ng/mL
Cn1c(=O)[nH]c(=O)c2[nH]cnc21 — plasma concentration (human, both sexes, plasma; median): 4310 nM
N#Cc1ccc(C(c2ccc(C#N)cc2)n2cncn2)cc1 — plasma concentration (human patients, plasma; oral, 2.5 mg daily, day of surgery): 20.2 ± 1.83 ng/mL
CCCN(CCC)S(=O)(=O)c1ccc(C(=O)O)cc1 — plasma concentration (healthy male humans, plasma; oral, dose not given, 4 h, 1 h before cocktail): 337000 nM
O=C(O)[C@H]1O[C@@H](Oc2cc(O)cc(/C=C\c3ccc(O)cc3)c2)[C@H](O)[C@@H](O)[C@@H]1O — plasma concentration (human, plasma; median): 426 nM
CN1CCN(c2ccc(OC(F)(F)F)c(Nc3ncc4c(n3)-c3c(c(C(N)=O)nn3CCO)CC4)c2)CC1 — plasma concentration (LC-MS/MS; human, plasma; oral, 12 mg/m2, 8 h post-dose): 69.5 ng/mL and 73.2 ng/mL and 94.2 ng/mL and 41.6 ng/mL
O=C(O)[C@H]1O[C@@H](Oc2ccc(/C=C\c3cc(O)cc(O)c3)cc2)[C@H](O)[C@@H](O)[C@@H]1O — plasma concentration (human, plasma; median): 436 nM
O=C(Nc1cnccc1Cl)N1CCN(Cc2ccc3c(c2)OC(F)(F)O3)CC1 — plasma concentration (human, plasma; 2.5 mg single dose, 24 h post dose day 1): 1.01 ng/mL
COCCCOc1ccnc(C[S+]([O-])c2nc3ccccc3[nH]2)c1C (stereo not shown) — plasma concentration (healthy male humans, plasma; oral, 40 mg/day for -4 days, 2 h): 325 ng/mL
C[C@H](CCC(=O)NCC(=O)O)[C@H]1CC[C@H]2[C@@H]3[C@H](O)C[C@@H]4C[C@H](O)CC[C@]4(C)[C@H]3C[C@H](O)[C@]12C — plasma concentration (healthy human volunteers, plasma; oral, dose not given, 0 h, control phase, probe drugs alone): 83.3 ± 24.3 nM
CO[C@H]1/C=C/O[C@@]2(C)Oc3c(C)c(O)c4c(O)c(c(/C=N/N5CCN(C)CC5)c(O)c4c3C2=O)NC(=O)/C(C)=C\C=C\[C@H](C)[C@H](O)[C@@H](C)[C@@H](O)[C@@H](C)[C@H](OC(C)=O)[C@@H]1C — plasma concentration (healthy male humans, plasma; oral, dose not given, 3 h, with cocktail): 7760 ng/mL
Cn1cnc2c1c(=O)[nH]c(=O)n2C — plasma concentration (human, both sexes, plasma; median): 17100 nM
C[C@H](CCC(=O)NCC(=O)O)[C@H]1CC[C@H]2[C@@H]3CC[C@@H]4C[C@H](O)CC[C@]4(C)[C@H]3CC[C@]12C — plasma concentration (healthy human volunteers, plasma; dose not given, 0 h, control phase, probe drugs alone): 21 ± 6.3 nM
COc1cc2c(cc1OC)CN(CCc1ccc(NC(=O)c3cc(OC)c(OC)cc3NC(=O)c3cnc4ccccc4c3)cc1)CC2 — plasma concentration (human, plasma; intravenous infusion, 5.9 mg/kg, 90 min): 2850 nM and 2560 nM and 3880 nM
C[C@H](CCC(=O)NCC(=O)O)[C@H]1CC[C@H]2[C@@H]3[C@H](O)C[C@@H]4C[C@H](O[C@@H]5O[C@H](C(=O)O)[C@@H](O)[C@H](O)[C@H]5O)CC[C@]4(C)[C@H]3CC[C@]12C — plasma concentration (healthy human volunteers, plasma; dose not given, 0 h, control phase, probe drugs alone): 40.3 ± 16.1 nM
Cn1c(=O)c2[nH]cnc2n(C)c1=O — plasma concentration (human, both sexes, plasma; median): 32500 nM
O=C(C1CCCCC1)N1CC(=O)N2CCc3ccccc3[C@@H]2C1 — plasma concentration (human; oral, 60 mg/kg, 4 h): 26 ng/mL
C[C@H](CCC(=O)NCC(=O)O)[C@H]1CC[C@H]2[C@@H]3CC[C@@H]4C[C@H](OS(=O)(=O)O)CC[C@]4(C)[C@H]3C[C@H](O)[C@]12C — plasma concentration (healthy human volunteers, plasma; dose not given, 0 h, control phase, probe drugs alone): 265 ± 100 nM
CC1(C)CCC(CN2CCN(c3ccc(C(=O)NS(=O)(=O)c4ccc(NCC5CCOCC5)c([N+](=O)[O-])c4)c(Oc4cnc5[nH]ccc5c4)c3)CC2)=C(c2ccc(Cl)cc2)C1 — plasma concentration (UPLC-MS/MS; human patients; oral, dose not given, 6 h post-dose, steady state, median): 1850 ng/mL
C[C@H](CCC(=O)NCC(=O)O)[C@H]1CC[C@H]2[C@@H]3[C@H](O)C[C@@H]4C[C@H](O)CC[C@]4(C)[C@H]3CC[C@]12C — plasma concentration (healthy human volunteers, plasma; dose not given, 0 h, control phase, probe drugs alone): 485 ± 81 nM
C[C@@H](O)[C@H]1C(=O)N2C(C(=O)O)=C(SCCN=CN)C[C@H]12 — plasma concentration (human; intravenous, 500 mg single, 0.25 h): 70100 nM
Cn1cnc2[nH]c(=O)[nH]c(=O)c21 — plasma concentration (human, both sexes, plasma; mean): 6490 nM
O=C(O)CCCCCCCCCCCCCCC(=O)O — plasma concentration (healthy human volunteers, plasma; oral, dose not given, 0 h, control phase, probe drugs alone): 119 ± 15 nM
Cn1c(=O)c2c(ncn2C)n(C)c1=O — plasma concentration (human, both sexes, plasma; mean): 179000 nM
O=C(O)CCCCCCCCCCCCC(=O)O — plasma concentration (healthy human volunteers, plasma; dose not given, 0 h, control phase, probe drugs alone): 58.3 ± 7.7 nM

For quick reference, copied from above:
C[C@H](CCC(=O)NCC(=O)O)[C@H]1CC[C@H]2[C@@H]3CC[C@@H]4C[C@H](OS(=O)(=O)O)CC[C@]4(C)[C@H]3C[C@H](O)[C@]12C — plasma concentration (healthy human volunteers, plasma; dose not given, 0 h, control phase, probe drugs alone): 265 ± 100 nM
CC1(C)CCC(CN2CCN(c3ccc(C(=O)NS(=O)(=O)c4ccc(NCC5CCOCC5)c([N+](=O)[O-])c4)c(Oc4cnc5[nH]ccc5c4)c3)CC2)=C(c2ccc(Cl)cc2)C1 — plasma concentration (UPLC-MS/MS; human patients; oral, dose not given, 6 h post-dose, steady state, median): 1850 ng/mL
C[C@H](CCC(=O)NCC(=O)O)[C@H]1CC[C@H]2[C@@H]3[C@H](O)C[C@@H]4C[C@H](O)CC[C@]4(C)[C@H]3CC[C@]12C — plasma concentration (healthy human volunteers, plasma; dose not given, 0 h, control phase, probe drugs alone): 485 ± 81 nM
C[C@@H](O)[C@H]1C(=O)N2C(C(=O)O)=C(SCCN=CN)C[C@H]12 — plasma concentration (human; intravenous, 500 mg single, 0.25 h): 70100 nM
